Measurements gathered from unrelated publications.
A part holds a random share of what one study measured.

Study 1
Target: Sal-like protein 4, full length isoform A (SALL4, Homo sapiens, UniProt Q9UJQ4, residues 1-1053)
Sequence of UniProt Q9UJQ4 (whole entry, looked up): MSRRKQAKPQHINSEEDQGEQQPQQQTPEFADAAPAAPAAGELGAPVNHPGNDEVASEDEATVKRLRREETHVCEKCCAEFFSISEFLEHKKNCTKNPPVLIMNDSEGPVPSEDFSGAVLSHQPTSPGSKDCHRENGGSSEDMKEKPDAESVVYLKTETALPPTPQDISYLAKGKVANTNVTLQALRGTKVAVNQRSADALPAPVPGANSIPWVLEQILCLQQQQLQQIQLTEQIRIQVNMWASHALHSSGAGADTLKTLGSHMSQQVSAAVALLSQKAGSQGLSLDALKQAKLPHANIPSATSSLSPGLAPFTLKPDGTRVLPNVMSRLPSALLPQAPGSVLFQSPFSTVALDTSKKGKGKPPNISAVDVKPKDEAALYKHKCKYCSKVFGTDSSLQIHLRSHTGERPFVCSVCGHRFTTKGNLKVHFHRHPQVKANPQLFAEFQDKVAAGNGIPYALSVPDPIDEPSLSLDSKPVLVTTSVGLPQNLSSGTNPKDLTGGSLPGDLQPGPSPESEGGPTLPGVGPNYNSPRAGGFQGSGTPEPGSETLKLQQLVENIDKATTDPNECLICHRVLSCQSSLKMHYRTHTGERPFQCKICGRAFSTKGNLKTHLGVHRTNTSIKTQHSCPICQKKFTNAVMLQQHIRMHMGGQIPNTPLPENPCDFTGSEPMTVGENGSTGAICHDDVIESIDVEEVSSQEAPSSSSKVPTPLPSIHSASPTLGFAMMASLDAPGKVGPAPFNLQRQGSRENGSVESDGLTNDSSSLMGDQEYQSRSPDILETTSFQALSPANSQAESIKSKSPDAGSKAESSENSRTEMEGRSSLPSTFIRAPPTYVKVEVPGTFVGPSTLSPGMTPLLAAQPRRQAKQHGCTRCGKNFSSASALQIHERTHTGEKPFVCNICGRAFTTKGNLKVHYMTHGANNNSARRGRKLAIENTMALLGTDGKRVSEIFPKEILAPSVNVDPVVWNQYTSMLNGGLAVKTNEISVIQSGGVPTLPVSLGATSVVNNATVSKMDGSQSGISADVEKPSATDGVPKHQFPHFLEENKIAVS
Technique: universal PBM
Form: double-stranded DNA, one strand shown
Medium: in vitro
Tested at: 600 nM
Notes: 8-mer, flanks averaged, mean of replicates
Direction: higher = stronger binding
Oligonucleotide | E-score
CTAACGCC | -0.104
CAGGCGAC | -0.365
GGATGTAC | 0.0316
ACGACAAG | -0.0584
TCCCGAAA | 0.0977
AGTATATC | 0.2
ATGCGCAG | -0.122
CGGTAGAG | -0.294
GATTCCGC | -0.134
AACGCTGA | -0.163
TACTTAAA | 0.211
CGGGAGAC | -0.192
AGTCAACC | -0.0997
CACACCGC | -0.254
ATGCCGCG | -0.184
AGCGTCCT | -0.191
AAGACTAG | -0.0447
CCGGCGCG | -0.274
CAAACAGG | -0.0695
GCCGAAGA | -0.064

Study 2
Target: RING finger protein unkempt homolog, zinc fingers 1-6, SBP tag (UNK, Homo sapiens, UniProt Q9C0B0, residues 30-357)
Sequence of UniProt Q9C0B0 (30-357, looked up): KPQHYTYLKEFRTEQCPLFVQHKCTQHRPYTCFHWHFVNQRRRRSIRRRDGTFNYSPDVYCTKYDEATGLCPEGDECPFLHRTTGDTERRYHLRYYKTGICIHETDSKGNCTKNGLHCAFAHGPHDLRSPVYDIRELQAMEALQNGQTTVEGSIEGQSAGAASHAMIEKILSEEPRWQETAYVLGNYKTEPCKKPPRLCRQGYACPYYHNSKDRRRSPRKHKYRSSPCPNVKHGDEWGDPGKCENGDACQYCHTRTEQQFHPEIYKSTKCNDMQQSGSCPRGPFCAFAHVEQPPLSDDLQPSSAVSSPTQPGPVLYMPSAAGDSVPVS
Technique: RNA Bind-n-Seq
Form: RNA
Medium: in vitro
Tested at: 100 nM
Notes: RNA with constant flanks, vertebrate orthologous sites, ends assumed
Reference: input RNA pool
Direction: higher = stronger binding
Constant ends, left off below: GGGAGUUCUACAGUCCGACGAUC … CAACAGAGGAUUGAGCAUCA
Oligonucleotide | bound/input enrichment
CUGUAGUGCUUCAGCCAGCAAUUGUAGAGUGCUAUUUAUUUGUGUCUGUGAGUUUGUACAUAACCCUAACCUCAUAUUGUUGCUGAGUUUCAUUUUGAGGAAGGCAAGUUUGAGUUUUCU | 0.509 ratio
GUGACUUUGGACGUCCGCUCCCCCUCAGUGUGGAGGCUGUUUAGUCUCGGGCCUUGCAGGUUUAUUUUACUCUCCUUGACUCGAGGCUUCUGUUUCACCAUGUUCCGCCAUAUCGUCGGU | 0.49 ratio
CCGUUCUGUGAAACAUGUCUACCCAGAAAUGUAGCAUUCUAUAAAUGCUAUUAAACAACUUAGCUAUAUUAUUUUUAAGUAUUAAAUUAUAUGUCAAGCAGUUAAAGUGAAUUUCAGAGU | 0.926 ratio
CUUUAUGGGCCUCGAAGAGUUGAAAUAAUGGAAGAAGAAAGUGAACAGUAAUCUUCAAUUUAGUAUUUAUGCUUAGGUGUGAAUGUUUUUGUUGUUGUUGUUGAACAUUUCUAUAAUCUU | 0.417 ratio
AUUGAACAAAAAUGUUUCCACUGGCUUUUGCCUGUAAGAAAAACAAUGUACCCGAGCACAUAGAGCUUUUUAAUAGCACUAACCAAUGCCUUUUUAGAUGUAUUUUUGAUGUAUAUAUCU | 0.625 ratio
UUACAGUCAUUGAUGGACUCUAUUUUUUUAUUAUUACUUGGACCUUGGUCGUUUUUAUACUAGCAAUGAAAAUGUCUUGUUUUAAUUUGUUUUUUGGGGUGUGGGGUGGGCAAUGUCUUG | 0.911 ratio
AUCUCGUGCCUCUCCCCACGGGGGGUGGGGAAAGCUGAAUGACCCUCAGCUGUUCCAAUCCAGUGGGUUUUUUUUAUUUGUUUUUUGAUUUAAAAAGAAAUUACUGUAUUUAUUAUGACA | 0.354 ratio
AACUGUAUUUGUGUCAUACCAGCAUAUUAACCUCUGUGCACAGCUUCCAAUGUUACCGUCUAGUUAGAUUUUUAUUUAAAAUAUGAAAAACUGCUUUUCCCAAGACGUUUUUUAAAAAAA | 1.32 ratio
CAGCAGAUUCUCUCAUAGGGAGAGCUGCACACAUUGCUGUUCUUGAUUCAGAAAUAUUUCUAGAGAAGUUCUUUCUUGUUGCUGCCCUGAAGUACUUUCAGUAGAGAAGAGCAUCGUAAG | 0.31 ratio
UUGAUUAUCCAUUAAAAUGUGUGUCAAAUGCUGAAUAUAGAAUUAAACCUUCACUUAGAAUAGAGUUAAUUUGUUAUAAUGAAGCUAUCUAUAGGUUUCCUUAAACCAGAGAUGCACUGC | 0.303 ratio
UGUAGUUUUGUUUUUAAUUUCAAGCAAAAUCUUAUUGUACUUGAAUGUGCCCUGUUUUGUUAGCACACCUAGACUUGCUGUAACUGUACUCAUGUCCCAGUAUGUACGUUCUUUCUAUGA | 0.445 ratio

Study 3
Target: Prothrombin, mature alpha-thrombin (F2, Homo sapiens, UniProt P00734)
Technique: aptamer microarray, sandwich
Form: DNA with 2'F-ANA
Medium: in vitro
Tested at: 200 nM
Notes: whole 15-mer aptamer, many near background
With: Cy3 exosite-II aptamer, 400 nM
Direction: higher = stronger binding
Oligonucleotide: GGTTGGTGTGGTTGG
Modification | mean fluorescence intensity [a.u.]
2'F-ANA at 1 2 3 4 6 9 10 11 12 13 14 | 53.2
2'F-ANA at 1 2 4 6 8 9 11 12 13 14 15 | 71.8
2'F-ANA at 1 2 5 9 10 13 | 202
2'F-ANA at 2 7 9 11 14 | 141
2'F-ANA at 1 5 9 11 12 13 14 15 | 48.8
2'F-ANA at 1 2 4 5 6 7 8 13 15 | 56.7
2'F-ANA at 2 4 5 6 8 10 12 14 15 | 47.9
2'F-ANA at 1 2 3 4 5 6 11 13 14 | 45.7
2'F-ANA at 3 6 9 11 12 15 | 1040
2'F-ANA at 2 3 4 8 9 14 | 310
2'F-ANA at 1 3 4 5 6 7 10 12 | 132
2'F-ANA at 5 6 7 9 14 15 | 44.5
2'F-ANA at 1 2 5 6 8 9 12 | 116
2'F-ANA at 5 7 8 9 13 15 | 59.2
2'F-ANA at 3 4 5 6 13 14 | 55.8
2'F-ANA at 2 5 6 7 9 11 12 13 14 | 46.3
2'F-ANA at 1 2 3 4 5 6 9 13 14 | 112

Study 4
Target: Interferon regulatory factor 7, full length, phosphomimetic (IRF7, Homo sapiens, UniProt Q92985, residues 1-503, S471D/S472D/S475D/S476D/S477D/S483D/S484D/S487D)
Technique: protein-binding microarray
Form: double-stranded DNA, one strand shown
Medium: in vitro
Tested at: 2200 nM top
Notes: 60-bp whole probe
With: salmon DNA 0.4 mg/ml
Reference: random background probes
Direction: higher = stronger binding
Constant ends, left off below: GCCTAGCAC … GTCTTGATTCGCTTGACGCTGCTG
Residues (chain): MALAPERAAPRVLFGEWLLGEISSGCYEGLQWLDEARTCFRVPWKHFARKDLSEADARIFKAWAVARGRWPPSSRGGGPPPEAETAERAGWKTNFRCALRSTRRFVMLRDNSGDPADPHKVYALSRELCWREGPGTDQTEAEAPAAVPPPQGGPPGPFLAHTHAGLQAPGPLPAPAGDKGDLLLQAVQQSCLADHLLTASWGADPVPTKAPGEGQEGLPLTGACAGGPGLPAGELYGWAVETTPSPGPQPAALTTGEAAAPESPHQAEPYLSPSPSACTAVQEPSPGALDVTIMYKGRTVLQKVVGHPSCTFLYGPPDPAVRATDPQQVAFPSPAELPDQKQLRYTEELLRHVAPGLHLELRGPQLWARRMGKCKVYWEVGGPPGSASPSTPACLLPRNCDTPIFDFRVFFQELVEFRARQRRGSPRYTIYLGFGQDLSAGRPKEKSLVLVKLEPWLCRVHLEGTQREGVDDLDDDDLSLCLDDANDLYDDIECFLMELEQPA
Oligonucleotide | fitted relative affinity [z-score]
CTTGCTTCCCAATTCTCTTTGTGCTAG | 2.4
GACGGTTTCGACTGTCGGGACGTGCTA | 3.24
TTAGGTCTCCCTTTCCTTTAGTGCTAG | 1.77
GACGGTATACTTTTCCTGACGTGCTAG | 0.932
TCATCTATGTAGTTGATACTGTGCTAG | 1.44
TTGGCTTCCTCTTTCTCTGCGTGCTAG | 1.92
TCCCCTCTCATTCCAATTCTGTGCTAG | 2.06
AATATGTTCCCTATATAAGGGTGCTAG | 0.661
CCAGGAAAAGGGATTCAGTTGTGCTAG | -0.589
GACGAACTGAGTATCGAGATGTGCTAG | 0.00739
TTAGGCTTCGGTCTCGGTTAGTGCTAG | 0.388
TTGGTTCTTATCCTTCCCCTCGTGCTA | 2.06
TTAGGTCTACTACTGCTTTAGTGCTAG | 0.298
GACGGACTGGGGATTCGGGACGTGCTA | -0.534
TTAGGTCTCCTTCTCCTTCAGTGCTAG | 1.05
TCACCTTTGCTTTCCTGACTGTGCTAG | 2.8
GTGGGTTTGAGTCTTCTCCTGTGCTAG | 0.575
TTAGATTTCAGACTTGATTAGTGCTAG | 0.108
GACGGACTGGACTATCGGGAAGTGCTA | -0.802
GACTGTATCGACACTGGGGACGTGCTA | 0.167
GACGGTTTCTACTATCGGGACGTGCTA | 1.83
TCATCTTTTTTTCTTTTACTGTGCTAG | 2.56
GACGGACTGTGTTTCGGGACGTGCTAG | 1.18
TCATTCCTGATCTCTGGTCTTGTGCTA | 1.83
TCATATGTCATTTACATACTGTGCTAG | 1.35

Study 5
Target: Histone acetyltransferase KAT6A, winged helix 1, GST fusion (KAT6A, Homo sapiens, UniProt Q92794, residues 1-85)
Technique: protein binding microarray
Form: double-stranded DNA, one strand shown
Medium: in vitro
Tested at: not given
Notes: 8-mer, flanks averaged, mean of 2 arrays, mostly near background
Reference: not given
Direction: higher = stronger binding
Construct (chain): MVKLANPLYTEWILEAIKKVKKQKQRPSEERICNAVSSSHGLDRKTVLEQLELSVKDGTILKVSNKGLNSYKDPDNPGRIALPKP
Oligonucleotide | E-score
ACAGTTTA | -0.14
CACCCTCA | -0.191
CGGGAGTC | 0.195
TATTGCAA | -0.0464
ATTCCGGG | -0.0259
ACTGGAAC | -0.13
AAGTCCTA | -0.0281
AAGGCCAT | -0.0376
AAAGCTTT | 0.206
ACAAGTAC | -0.0273
AACCACGG | 0.134
AGAAAACA | -0.094
TTATTAAA | -0.0027
ATATTCAG | 0.0282
AAATAACC | -0.186
AGTGTTTA | 0.00511
CGCAGTAA | 0.0815
AGCCACAC | -0.215
TATTCTCA | -0.205
ACGTACCT | -0.238
CGCACGAC | 0.217
CCTCGGAG | 0.0378
GATCTAGA | -0.267
CTCATAAG | -0.164
CACTTAGG | -0.242

Excerpt of the above (study 2):
Oligonucleotide | bound/input enrichment
CUGUAGUGCUUCAGCCAGCAAUUGUAGAGUGCUAUUUAUUUGUGUCUGUGAGUUUGUACAUAACCCUAACCUCAUAUUGUUGCUGAGUUUCAUUUUGAGGAAGGCAAGUUUGAGUUUUCU | 0.509 ratio
GUGACUUUGGACGUCCGCUCCCCCUCAGUGUGGAGGCUGUUUAGUCUCGGGCCUUGCAGGUUUAUUUUACUCUCCUUGACUCGAGGCUUCUGUUUCACCAUGUUCCGCCAUAUCGUCGGU | 0.49 ratio
CCGUUCUGUGAAACAUGUCUACCCAGAAAUGUAGCAUUCUAUAAAUGCUAUUAAACAACUUAGCUAUAUUAUUUUUAAGUAUUAAAUUAUAUGUCAAGCAGUUAAAGUGAAUUUCAGAGU | 0.926 ratio
CUUUAUGGGCCUCGAAGAGUUGAAAUAAUGGAAGAAGAAAGUGAACAGUAAUCUUCAAUUUAGUAUUUAUGCUUAGGUGUGAAUGUUUUUGUUGUUGUUGUUGAACAUUUCUAUAAUCUU | 0.417 ratio
AUUGAACAAAAAUGUUUCCACUGGCUUUUGCCUGUAAGAAAAACAAUGUACCCGAGCACAUAGAGCUUUUUAAUAGCACUAACCAAUGCCUUUUUAGAUGUAUUUUUGAUGUAUAUAUCU | 0.625 ratio
UUACAGUCAUUGAUGGACUCUAUUUUUUUAUUAUUACUUGGACCUUGGUCGUUUUUAUACUAGCAAUGAAAAUGUCUUGUUUUAAUUUGUUUUUUGGGGUGUGGGGUGGGCAAUGUCUUG | 0.911 ratio
AUCUCGUGCCUCUCCCCACGGGGGGUGGGGAAAGCUGAAUGACCCUCAGCUGUUCCAAUCCAGUGGGUUUUUUUUAUUUGUUUUUUGAUUUAAAAAGAAAUUACUGUAUUUAUUAUGACA | 0.354 ratio
AACUGUAUUUGUGUCAUACCAGCAUAUUAACCUCUGUGCACAGCUUCCAAUGUUACCGUCUAGUUAGAUUUUUAUUUAAAAUAUGAAAAACUGCUUUUCCCAAGACGUUUUUUAAAAAAA | 1.32 ratio
CAGCAGAUUCUCUCAUAGGGAGAGCUGCACACAUUGCUGUUCUUGAUUCAGAAAUAUUUCUAGAGAAGUUCUUUCUUGUUGCUGCCCUGAAGUACUUUCAGUAGAGAAGAGCAUCGUAAG | 0.31 ratio
UUGAUUAUCCAUUAAAAUGUGUGUCAAAUGCUGAAUAUAGAAUUAAACCUUCACUUAGAAUAGAGUUAAUUUGUUAUAAUGAAGCUAUCUAUAGGUUUCCUUAAACCAGAGAUGCACUGC | 0.303 ratio
UGUAGUUUUGUUUUUAAUUUCAAGCAAAAUCUUAUUGUACUUGAAUGUGCCCUGUUUUGUUAGCACACCUAGACUUGCUGUAACUGUACUCAUGUCCCAGUAUGUACGUUCUUUCUAUGA | 0.445 ratio
